Measurements collected from several papers.
Each line is one published result; not all experiments were run side by side. Several values in a cell are separate wells, animals, samples, runs or records. ± marks the error that the study gave.
TDP1: Tyrosyl-DNA phosphodiesterase 1 (TDP1, Homo sapiens, UniProt Q9NUW8)
Chain of UniProt Q9NUW8 (whole entry, looked up): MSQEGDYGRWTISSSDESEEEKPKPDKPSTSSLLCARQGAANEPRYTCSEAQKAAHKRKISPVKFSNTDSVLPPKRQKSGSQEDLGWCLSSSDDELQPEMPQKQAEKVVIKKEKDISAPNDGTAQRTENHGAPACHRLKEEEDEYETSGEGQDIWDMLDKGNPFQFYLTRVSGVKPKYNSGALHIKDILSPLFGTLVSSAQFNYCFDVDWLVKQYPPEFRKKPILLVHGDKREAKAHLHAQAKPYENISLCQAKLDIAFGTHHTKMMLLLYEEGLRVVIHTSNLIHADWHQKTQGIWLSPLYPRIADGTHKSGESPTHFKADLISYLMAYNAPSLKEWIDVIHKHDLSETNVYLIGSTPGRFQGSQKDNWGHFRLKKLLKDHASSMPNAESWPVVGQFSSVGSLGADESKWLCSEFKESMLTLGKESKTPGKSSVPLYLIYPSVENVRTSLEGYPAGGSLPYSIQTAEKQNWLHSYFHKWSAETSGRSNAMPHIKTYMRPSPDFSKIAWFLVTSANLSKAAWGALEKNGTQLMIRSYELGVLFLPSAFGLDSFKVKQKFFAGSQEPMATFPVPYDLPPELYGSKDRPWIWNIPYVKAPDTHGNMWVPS
OfChi-h: Chitinase (OfChi-h, Ostrinia furnacalis, UniProt Q4AE59)
ppa: Inorganic pyrophosphatase (ppa, Escherichia coli, UniProt P0A7A9)
Chain of UniProt P0A7A9 (whole entry, looked up): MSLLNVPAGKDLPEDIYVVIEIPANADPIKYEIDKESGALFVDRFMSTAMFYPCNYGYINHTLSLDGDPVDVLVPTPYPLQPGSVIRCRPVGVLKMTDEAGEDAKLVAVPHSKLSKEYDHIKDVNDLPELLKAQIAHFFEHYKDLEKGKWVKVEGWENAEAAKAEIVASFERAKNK
Uncharacterized protein: Uncharacterized protein (Trypanosoma brucei brucei, UniProt Q386Q8)
Chain of UniProt Q13418 (whole entry, looked up): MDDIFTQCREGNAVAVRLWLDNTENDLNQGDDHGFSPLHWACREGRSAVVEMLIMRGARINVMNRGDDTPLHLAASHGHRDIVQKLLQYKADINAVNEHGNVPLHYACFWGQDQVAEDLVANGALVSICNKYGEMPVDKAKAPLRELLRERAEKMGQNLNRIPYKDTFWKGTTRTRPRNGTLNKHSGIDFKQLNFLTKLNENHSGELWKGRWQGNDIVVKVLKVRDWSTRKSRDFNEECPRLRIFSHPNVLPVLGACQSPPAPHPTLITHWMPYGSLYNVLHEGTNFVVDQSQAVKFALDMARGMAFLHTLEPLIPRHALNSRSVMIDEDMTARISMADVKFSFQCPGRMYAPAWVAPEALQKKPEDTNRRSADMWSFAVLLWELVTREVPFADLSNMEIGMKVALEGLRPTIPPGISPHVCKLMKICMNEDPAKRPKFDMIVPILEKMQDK
Chain of UniProt P13945 (whole entry, looked up): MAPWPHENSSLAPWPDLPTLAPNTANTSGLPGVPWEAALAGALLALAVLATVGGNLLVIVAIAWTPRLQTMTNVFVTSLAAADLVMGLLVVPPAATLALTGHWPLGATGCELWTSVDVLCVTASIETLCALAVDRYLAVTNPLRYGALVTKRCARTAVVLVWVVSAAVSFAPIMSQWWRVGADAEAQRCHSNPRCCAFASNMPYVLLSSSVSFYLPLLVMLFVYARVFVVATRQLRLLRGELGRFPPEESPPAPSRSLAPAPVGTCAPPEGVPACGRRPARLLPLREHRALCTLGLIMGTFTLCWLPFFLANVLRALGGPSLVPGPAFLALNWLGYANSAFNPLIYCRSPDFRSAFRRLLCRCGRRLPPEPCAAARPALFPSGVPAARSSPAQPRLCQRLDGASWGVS
Chain of UniProt Q13639 (whole entry, looked up): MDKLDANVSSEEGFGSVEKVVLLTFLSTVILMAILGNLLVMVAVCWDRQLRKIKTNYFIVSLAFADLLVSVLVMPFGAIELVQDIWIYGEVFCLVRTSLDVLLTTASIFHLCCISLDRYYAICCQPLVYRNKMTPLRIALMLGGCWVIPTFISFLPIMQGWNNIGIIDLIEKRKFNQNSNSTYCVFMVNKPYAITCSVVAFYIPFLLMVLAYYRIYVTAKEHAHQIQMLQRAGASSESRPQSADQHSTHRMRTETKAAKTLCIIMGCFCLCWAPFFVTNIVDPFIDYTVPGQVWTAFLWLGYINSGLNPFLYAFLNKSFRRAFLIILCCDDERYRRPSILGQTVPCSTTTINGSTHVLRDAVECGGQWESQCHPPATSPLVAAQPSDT
Chain of UniProt Q7RTN6 (whole entry, looked up): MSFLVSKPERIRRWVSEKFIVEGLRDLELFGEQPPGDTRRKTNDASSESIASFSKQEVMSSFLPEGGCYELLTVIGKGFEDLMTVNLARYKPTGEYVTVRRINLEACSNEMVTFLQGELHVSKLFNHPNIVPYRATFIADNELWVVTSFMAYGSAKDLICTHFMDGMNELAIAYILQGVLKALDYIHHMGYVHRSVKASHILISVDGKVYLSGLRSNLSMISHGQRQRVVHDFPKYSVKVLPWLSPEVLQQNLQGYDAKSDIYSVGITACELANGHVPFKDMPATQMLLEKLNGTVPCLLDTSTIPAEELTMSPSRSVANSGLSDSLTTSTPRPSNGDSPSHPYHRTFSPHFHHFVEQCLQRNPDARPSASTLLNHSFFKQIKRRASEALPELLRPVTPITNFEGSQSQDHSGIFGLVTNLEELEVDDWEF
Chain of UniProt P47870 (whole entry, looked up): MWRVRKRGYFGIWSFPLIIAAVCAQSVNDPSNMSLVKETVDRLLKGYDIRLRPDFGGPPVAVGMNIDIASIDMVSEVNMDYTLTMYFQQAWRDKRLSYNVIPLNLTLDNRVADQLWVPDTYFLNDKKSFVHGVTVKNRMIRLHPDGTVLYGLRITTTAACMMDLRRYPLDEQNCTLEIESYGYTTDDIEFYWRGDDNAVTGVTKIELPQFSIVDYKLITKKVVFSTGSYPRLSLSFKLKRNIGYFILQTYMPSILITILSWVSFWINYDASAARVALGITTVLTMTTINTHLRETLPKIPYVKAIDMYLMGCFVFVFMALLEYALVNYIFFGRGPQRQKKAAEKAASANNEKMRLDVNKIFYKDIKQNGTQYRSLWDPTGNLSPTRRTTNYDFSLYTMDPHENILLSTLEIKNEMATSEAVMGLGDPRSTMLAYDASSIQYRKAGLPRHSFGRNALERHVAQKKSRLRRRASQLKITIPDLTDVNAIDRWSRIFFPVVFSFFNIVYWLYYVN
Chain of UniProt P30989 (whole entry, looked up): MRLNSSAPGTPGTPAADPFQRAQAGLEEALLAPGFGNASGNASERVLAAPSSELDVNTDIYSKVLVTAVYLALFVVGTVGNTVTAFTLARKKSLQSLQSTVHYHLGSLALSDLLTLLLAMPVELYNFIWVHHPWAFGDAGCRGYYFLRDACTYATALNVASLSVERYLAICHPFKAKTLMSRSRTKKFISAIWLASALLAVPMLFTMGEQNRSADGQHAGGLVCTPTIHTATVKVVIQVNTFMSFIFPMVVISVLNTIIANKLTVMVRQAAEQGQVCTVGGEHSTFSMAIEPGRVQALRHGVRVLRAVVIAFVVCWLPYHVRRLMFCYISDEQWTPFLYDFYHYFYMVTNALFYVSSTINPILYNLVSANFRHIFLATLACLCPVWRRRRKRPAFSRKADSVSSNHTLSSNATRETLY
Chain of UniProt Q6SA08 (whole entry, looked up): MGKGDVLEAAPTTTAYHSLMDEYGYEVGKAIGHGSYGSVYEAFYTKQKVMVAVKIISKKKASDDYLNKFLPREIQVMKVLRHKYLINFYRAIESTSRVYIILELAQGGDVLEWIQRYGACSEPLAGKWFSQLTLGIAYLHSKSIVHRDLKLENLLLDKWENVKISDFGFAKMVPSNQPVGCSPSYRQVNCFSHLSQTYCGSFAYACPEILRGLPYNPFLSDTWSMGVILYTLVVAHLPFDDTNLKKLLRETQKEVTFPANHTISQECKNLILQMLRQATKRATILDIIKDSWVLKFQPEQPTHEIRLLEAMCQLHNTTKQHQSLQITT
Chain of UniProt Q5U3Y7 (whole entry, looked up): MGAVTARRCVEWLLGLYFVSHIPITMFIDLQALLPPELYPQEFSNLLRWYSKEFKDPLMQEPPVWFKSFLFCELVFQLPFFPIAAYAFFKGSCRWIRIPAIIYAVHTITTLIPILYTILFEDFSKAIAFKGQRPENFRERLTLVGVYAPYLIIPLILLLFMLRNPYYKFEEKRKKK
Chain of UniProt P41146 (whole entry, looked up): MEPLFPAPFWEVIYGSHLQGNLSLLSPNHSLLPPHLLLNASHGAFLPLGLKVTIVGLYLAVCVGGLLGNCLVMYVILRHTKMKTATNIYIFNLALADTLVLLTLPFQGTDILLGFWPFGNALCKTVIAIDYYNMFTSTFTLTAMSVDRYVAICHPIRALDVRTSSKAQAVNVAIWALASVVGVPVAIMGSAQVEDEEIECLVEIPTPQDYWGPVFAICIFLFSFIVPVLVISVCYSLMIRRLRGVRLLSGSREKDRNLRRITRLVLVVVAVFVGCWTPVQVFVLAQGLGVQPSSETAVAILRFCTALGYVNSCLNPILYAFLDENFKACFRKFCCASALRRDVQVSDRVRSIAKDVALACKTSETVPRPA
Chain of UniProt P43140 (whole entry, looked up): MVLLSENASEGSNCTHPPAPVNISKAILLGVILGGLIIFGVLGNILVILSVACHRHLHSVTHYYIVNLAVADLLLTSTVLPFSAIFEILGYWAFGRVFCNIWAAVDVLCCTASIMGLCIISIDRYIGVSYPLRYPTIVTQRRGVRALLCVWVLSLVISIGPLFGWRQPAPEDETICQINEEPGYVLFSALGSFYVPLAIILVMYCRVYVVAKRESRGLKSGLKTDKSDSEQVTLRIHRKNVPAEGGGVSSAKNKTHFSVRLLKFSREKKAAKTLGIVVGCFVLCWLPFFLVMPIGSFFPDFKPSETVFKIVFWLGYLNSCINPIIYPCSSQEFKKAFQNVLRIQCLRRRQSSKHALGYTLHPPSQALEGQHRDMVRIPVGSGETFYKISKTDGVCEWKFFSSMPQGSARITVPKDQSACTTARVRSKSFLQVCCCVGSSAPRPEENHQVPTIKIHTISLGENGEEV
Chain of UniProt O75365 (whole entry, unmodified, looked up): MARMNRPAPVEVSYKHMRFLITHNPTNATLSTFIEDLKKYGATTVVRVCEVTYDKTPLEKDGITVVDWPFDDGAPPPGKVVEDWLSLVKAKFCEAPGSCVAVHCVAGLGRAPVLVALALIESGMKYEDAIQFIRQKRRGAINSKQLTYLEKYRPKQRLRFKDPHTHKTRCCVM

CN1CCCNC(=O)c2cccc(c2)C(=O)NCCCN(C)CCCNc2cccc3c2C(=O)c2cccc(c2C3=O)NCCC1 — log2 fold change (SAS; RNA-Seq, refers to: PDCD11 mRNA; 1 µM, 6 h; relative to: untreated cells): -0.698
CN(C)c1ccc(C=NOCc2ccc(-c3nc4cc(-c5ccccc5)ccn4c3Nc3ccc(C(=O)O)cc3)cc2)cc1 (mixture of isomers) — inhibition (TDP1; enzyme activity, inhibitor; 100 µM, unpurified compound): 40.9%
CC(C)C[C@H](NC(=O)[C@H](Cc1ccc(O)cc1)NC(=O)[C@@H](CCCNC(=N)N)NC(=O)[C@@H](CO)NC(=O)[C@H](Cc1ccccc1)NC(=O)[C@H](CC1CCCCC1)NC(=O)[C@H](CC(=O)O)NC(=O)CN1CCN(CC(=O)O)CCN(CC(=O)O)CCN(CC(=O)O)CC1)C(=O)N[C@@H](Cc1c[nH]c2ccccc12)C(=O)N[C@@H](CO)C(=O)O [copper-64 labelled] — activity concentration (human, upper large intestine; concentration not given, 3 h): 804 Bq/mL and 1750 Bq/mL and 4520 Bq/mL and 1790 Bq/mL and 1910 Bq/mL and 1650 Bq/mL
CN(C)c1nc(NCc2cccc3ccccc23)c(/N=N/c2ccc(Cl)cc2)c(N(C)C)n1 — inhibition (OfChi-h; enzyme activity, inhibitor, fluorescence; 1 µM): 83.9%
Cc1[nH]nc2c1N=C(c1ccccc1Cl)c1cnc(N3CCOCC3)cc1N2 — inhibition (Adra1a (Rattus norvegicus, UniProt P43140); cell-free assay; 10 µM): -3%
O=C(O)c1ccc(Nc2c(-c3ccccc3)nc3ccc(CON=Cc4cnc5ccccc5c4)cn23)cc1 — inhibition (TDP1; enzyme activity, inhibitor; 100 µM, unpurified compound): -0.1%
CC(=O)NC1C(=O)N(c2ccccc2)N=C1C (stereo not shown) — inhibition (ppa; inhibitor, counter-screen, coupling enzyme alone; 30 µM): 46.1%
COc1cc([N+](=O)[O-])ccc1-n1c(C)cc(C=NOCc2ccc3nc(-c4ccccc4)c(Nc4ccc(C(=O)O)cc4)n3c2)c1C (mixture of isomers) — inhibition (TDP1; enzyme activity, inhibitor; 100 µM, unpurified compound): 24.1%
COc1cc(-c2cn(C)c(=O)c3cnccc23)cc(OC)c1CN(C)C — inhibition (Bromodomain-containing protein 4, BD2 (BRD4, Homo sapiens, UniProt O60885); 1 µM): -4.72%
N=C(N)NCCCC(NC(=O)C(CC(=O)NO)Cc1ccc2ccccc2c1)C(=O)NC(Cc1c[nH]c2ccccc12)C(=O)NC(CCC(=O)O)C(N)=O (stereo not shown) — inhibition (Matrix metalloproteinase-19 (Homo sapiens, UniProt Q99542); 1 µM): 2%
Cn1c(/C=C/c2cn(C)c3ccccc23)nc2ccccc2c1=O — inhibition (ppa; inhibitor, counter-screen, coupling enzyme alone; 30 µM): 25.5%
Cc1cc(O)c(=O)c(O)cc1C(=O)c1cccs1 — CC50 (HepDES19; cell growth or viability, MTS; 72 h): 25.8 µM
C[Si](C)(C)C[C@H](CN)CC(=O)O — inhibition (Tmem97 (Rattus norvegicus, UniProt Q5U3Y7); ligand displacement, radioligand; 250 µM): -1%
Cc1nc2c(C)cccn2c1C=NOCc1ccc(-c2nc3cc(-c4ccccc4)ccn3c2Nc2ccc(C(=O)O)cc2)cc1 — inhibition (TDP1; enzyme activity, inhibitor; 100 µM, unpurified compound): 83.2%
CCC(=O)N(C)c1ccc(Cl)c(Cl)c1 — inhibition (Nociceptin receptor (OPRL1, Homo sapiens, UniProt P41146); ligand displacement, radioligand; 10 µM): < 10%
COc1c(C=NOCc2ccc(-c3nc4cc(-c5ccccc5)ccn4c3Nc3ccc(C(=O)O)cc3)cc2)c(C)nn1C (mixture of isomers) — inhibition (TDP1; enzyme activity, inhibitor; 100 µM, unpurified compound): 60.3%
CN(Cc1ccc(/C=C/C(=O)NO)cc1)CC12CC3CC(CC(C3)C1)C2 — inhibition (human GAL1 receptor; radioligand binding; 0.05 µM): -9%
Cc1cc[n+](-c2nc([O-])sc2C=NOCc2ccc3nc(-c4ccccc4)c(Nc4ccc(C(=O)O)cc4)n3c2)cc1 — inhibition (TDP1; enzyme activity, inhibitor; 100 µM, unpurified compound): -10.6%
Brc1ccccc1-c1nnc(CSc2nnnn2-c2ccccc2)o1 — inhibition (ADRB3 (Homo sapiens, UniProt P13945); ligand displacement, radioligand; 10 µM): 27%
O=C(O)c1ccc(Nc2c(-c3ccccc3)nc3ccc(CON=Cc4csc5ccccc45)cn23)cc1 (mixture of isomers) — inhibition (TDP1; enzyme activity, inhibitor; 100 µM, unpurified compound): 0.4%
COC1CN([C@H]2CC[C@H]([C@@]3(C)Oc4c(Cl)cc(C(=O)NCc5c(SC)cc(C)[nH]c5=O)c(C)c4O3)CC2)C1 — log2 fold change (RNA-seq, refers to: ACKR2; human, whole blood; dose not given, 24 h; relative to: pretreatment baseline): 3.41
CC1=NN(c2ccccc2F)C(=O)/C1=N\Nc1ccc(S(N)(=O)=O)cc1 — inhibition (bovine α-glucosidase; enzyme activity, inhibitor, glucose oxidase; 100 µg/mL, together with: maltose): 38.5%
O=C(CN1CCO[C@@H](COc2cccc(Cl)c2)C1)N1CCc2ccccc21 — inhibition (HTR4 (Homo sapiens, UniProt Q13639); radioligand binding; concentration not given): 7.6%
CC(C)NCCCn1c(Sc2cc3c(cc2I)OCO3)nc2c(N)ncnc21 — inhibition (Hsp90; tracer binding, autoradiography; human and mouse tumour sections; 10 µM, together with: [11C]HSP990): > 85%
C=CC(=O)N1Cc2nc(-c3cc(-c4cc(Cl)cnc4Cl)c(F)cc3F)n(-c3ccncn3)c2C1 — inhibition (MAP3K21 (Homo sapiens, UniProt Q5TCX8); cell-free assay, inhibitor; 1 µM): 1.1%
CS(=O)(=O)C(C=NOCc1ccc(-c2nc3cc(-c4ccccc4)ccn3c2Nc2ccc(C(=O)O)cc2)cc1)c1nc2ccccc2[nH]1 (stereo not shown) — inhibition (TDP1; enzyme activity, inhibitor; 100 µM, unpurified compound): 73.3%
CS(=O)(=O)Nc1cccc(-c2csc3cnc(Nc4ccc(N5CCN(CCCCCOc6cccc7c6C(=O)N(C6CCC(=O)NC6=O)C7=O)CC5)cc4)nc23)c1 (stereo not shown) — inhibition (ILK (Homo sapiens, UniProt Q13418); probe labelling, inhibitor, KiNativ chemoproteomics; MOLT-4; 1 µM): 26.9%
CC(C)C(C)NC(=O)COC(=O)c1cc2c(s1)CCC2 (stereo not shown) — inhibition (Protein tyrosine phosphatase type IVA 3, with CNNM4 CBS domain (PTP4A3, Homo sapiens, UniProt O75365); protein-protein interaction, inhibitor, HTRF; 10 µM): 74.9 ± 3.9%
COc1ccc(OC)c(C2=Nn3c(nnc3C3CCCCC3)SC2)c1 — inhibition (Uncharacterized protein; enzyme activity, inhibitor, coupled colorimetric; 30 µM, together with: E. coli pyrophosphatase coupling): 37.4%
COc1ncc2nc(C)n(Cc3ncc(S(N)(=O)=O)cc3F)c2c1-c1ccccc1 — inhibition (CCKAR (Homo sapiens, UniProt P32238); antagonist, cell-based; 10 µM): 1.35%
CC(=O)Nc1sc2c(c1SC#N)CCCC2 — inhibition (ppa; inhibitor, counter-screen, coupling enzyme alone; 30 µM): 49.6%
C=CC(=O)Nc1cc(-c2nn(C3CCN(CCNC(=O)[C@H](C)CCC45CC6CC(CC(C6)C4)C5)CC3)c3ncnc(N)c23)ccc1Oc1ccccc1 — inhibition (STRADA (Homo sapiens, UniProt Q7RTN6); inhibitor, KiNativ profiling; biochemical; 2 µM): 27.6%
Oc1cc2c(cc1O)C(c1cccc3ccccc13)NCC2 (stereo not shown) — inhibition (tyrosinase; enzyme activity, inhibitor; 100 µM, together with: levodopa): 15.7 ± 5.01%
CCN1CCN(Cc2ccc(CNc3nc(N(C)C)nc(N(C)C)c3/N=N/c3ccc(Cl)cc3)cc2)CC1 — inhibition (OfChi-h; enzyme activity, inhibitor, fluorescence; 1 µM): 49.2%
COc1ccc(Cl)cc1C(=O)Sc1cccccc1=O — CC50 (HepDES19; cell growth or viability, MTS; 72 h): 22.8 µM
CCN(CC)CC#CCNc1ccnc2cc(Cl)ccc12 — revertants per well (Salmonella typhimurium; mini-Ames test; TA100; 500.0 µg/well, without S9): 18
Cc1ncsc1-c1ccc(C(C)NC(=O)C2CC(O)CN2C(=O)C(NC(=O)CCCCCCCCCCN2CCCC(Nc3ncc(Cl)c(Nc4ccccc4S(=O)(=O)C(C)C)n3)C2)C(C)(C)C)cc1 (stereo not shown) — log2 fold change (22Rv1; RNA-seq, refers to: MTHFSD mRNA; concentration not given; relative to: DMSO): -1.97
COc1ccc(NC2(C#N)C(=O)Nc3ccccc32)cc1 (stereo not shown) — inhibition (ppa; inhibitor, counter-screen, coupling enzyme alone; 30 µM): 49.2%
CO[C@@H](C)c1c(NC(=O)Nc2cnc(-n3nccn3)c(C(F)(F)F)c2)cnc2sc(C)nc12 — inhibition (NTSR1 (Homo sapiens, UniProt P30989); ligand displacement, radioligand; 10 µM): -6.1%
O=C1c2sc(-c3ccc(N4CCC(CO)CC4)nc3F)nc2CCN1c1cccnc1 — inhibition (GABA-A receptor; GABA-A site (alpha1/beta2 interface), with gamma-2 subunit (Homo sapiens, UniProt P14867+P47870); radioligand binding; 1 µM, together with: agonist radioligand): -9%
Cc1ccc2c(c1Br)C(O)(CC(=O)c1ccc3c(c1)OCO3)C(=O)N2 (stereo not shown) — inhibition (ppa; enzyme activity; 30 µM): -3.8%
CC1=NN(c2cccc(F)c2)C(=O)/C1=N\Nc1ccc(S(N)(=O)=O)cc1 — inhibition (bovine α-glucosidase; enzyme activity, inhibitor, glucose oxidase; 50 µg/mL, together with: maltose): 27.6%
O=C(CSc1nnc(-c2ccco2)c(-c2ccco2)n1)c1cccs1 — inhibition (Uncharacterized protein; enzyme activity, inhibitor, coupled colorimetric; 30 µM, together with: E. coli pyrophosphatase coupling): 23%
CCOC(=O)CCCCC1NCCc2ccc(O)c(O)c21 (stereo not shown) — inhibition (tyrosinase; enzyme activity, inhibitor; 100 µM, together with: levodopa): 31.8 ± 2.24%
O=C1c2sc(-c3ccc(N4CCC(F)C4)nc3F)nc2CCN1c1cccnc1 (stereo not shown) — inhibition (TAR DNA-binding protein 43, aggregated (TARDBP, Homo sapiens, UniProt Q13148); radioligand binding; homogenate, FTLD-TDP, type A; 500 nM, together with: [3H]ACI-19626): 69.5% and 76.7%
Cc1nc2c(F)cc(-c3nc(Nc4ccc(CNC(=O)CCCCCCC(=O)NO)cc4)ncc3F)cc2n1C(C)C — inhibition (TSSK4 (Homo sapiens, UniProt Q6SA08); enzyme activity, inhibitor; 1 µM): 30%
CN(C)C/C=C/C(=O)Nc1ccc2nc(NCCCCCN(C)C)nc(NCCCCCCN(C)C)c2c1 — inhibition (EHMT1 (Homo sapiens, UniProt Q9H9B1); enzyme activity, inhibitor, radiometric; 50 µM): 84%
C[N+](C)(CCCN1c2ccccc2CCc2ccc(Cl)cc21)Cc1ccccc1 — inhibition (ppa; inhibitor, counter-screen, coupling enzyme alone; 30 µM): 51.5%
Oc1cc2c(cc1O)C(c1ccc3[nH]ccc3c1)NCC2 (stereo not shown) — inhibition (tyrosinase; enzyme activity, inhibitor; 100 µM, together with: levodopa): 33 ± 1.3%

Some of these lines once more:
COc1cc(-c2cn(C)c(=O)c3cnccc23)cc(OC)c1CN(C)C — inhibition (Bromodomain-containing protein 4, BD2 (BRD4, Homo sapiens, UniProt O60885); 1 µM): -4.72%
CCOC(=O)CCCCC1NCCc2ccc(O)c(O)c21 (stereo not shown) — inhibition (tyrosinase; enzyme activity, inhibitor; 100 µM, together with: levodopa): 31.8 ± 2.24%
O=C(O)c1ccc(Nc2c(-c3ccccc3)nc3ccc(CON=Cc4csc5ccccc45)cn23)cc1 (mixture of isomers) — inhibition (TDP1; enzyme activity, inhibitor; 100 µM, unpurified compound): 0.4%
